# Published values gathered from unrelated publications.
# Each numbered part is a random draw from the data of one study; scales do not carry over between parts.
# Sequence of UniProt P49761 (whole entry, looked up): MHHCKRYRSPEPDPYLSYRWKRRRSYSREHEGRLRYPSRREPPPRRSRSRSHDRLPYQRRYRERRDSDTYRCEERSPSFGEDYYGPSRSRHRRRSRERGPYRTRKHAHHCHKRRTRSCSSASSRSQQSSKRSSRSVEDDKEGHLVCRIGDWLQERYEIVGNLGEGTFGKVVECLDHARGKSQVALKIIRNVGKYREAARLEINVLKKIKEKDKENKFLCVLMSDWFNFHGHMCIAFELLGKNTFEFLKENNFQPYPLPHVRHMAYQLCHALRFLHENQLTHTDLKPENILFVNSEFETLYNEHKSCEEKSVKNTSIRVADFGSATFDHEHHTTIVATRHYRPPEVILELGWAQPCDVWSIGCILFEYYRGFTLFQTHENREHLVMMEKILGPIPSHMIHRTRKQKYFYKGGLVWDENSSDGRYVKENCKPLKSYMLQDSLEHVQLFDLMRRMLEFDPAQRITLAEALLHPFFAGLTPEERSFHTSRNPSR
# Sequence of UniProt Q14004 (whole entry, looked up): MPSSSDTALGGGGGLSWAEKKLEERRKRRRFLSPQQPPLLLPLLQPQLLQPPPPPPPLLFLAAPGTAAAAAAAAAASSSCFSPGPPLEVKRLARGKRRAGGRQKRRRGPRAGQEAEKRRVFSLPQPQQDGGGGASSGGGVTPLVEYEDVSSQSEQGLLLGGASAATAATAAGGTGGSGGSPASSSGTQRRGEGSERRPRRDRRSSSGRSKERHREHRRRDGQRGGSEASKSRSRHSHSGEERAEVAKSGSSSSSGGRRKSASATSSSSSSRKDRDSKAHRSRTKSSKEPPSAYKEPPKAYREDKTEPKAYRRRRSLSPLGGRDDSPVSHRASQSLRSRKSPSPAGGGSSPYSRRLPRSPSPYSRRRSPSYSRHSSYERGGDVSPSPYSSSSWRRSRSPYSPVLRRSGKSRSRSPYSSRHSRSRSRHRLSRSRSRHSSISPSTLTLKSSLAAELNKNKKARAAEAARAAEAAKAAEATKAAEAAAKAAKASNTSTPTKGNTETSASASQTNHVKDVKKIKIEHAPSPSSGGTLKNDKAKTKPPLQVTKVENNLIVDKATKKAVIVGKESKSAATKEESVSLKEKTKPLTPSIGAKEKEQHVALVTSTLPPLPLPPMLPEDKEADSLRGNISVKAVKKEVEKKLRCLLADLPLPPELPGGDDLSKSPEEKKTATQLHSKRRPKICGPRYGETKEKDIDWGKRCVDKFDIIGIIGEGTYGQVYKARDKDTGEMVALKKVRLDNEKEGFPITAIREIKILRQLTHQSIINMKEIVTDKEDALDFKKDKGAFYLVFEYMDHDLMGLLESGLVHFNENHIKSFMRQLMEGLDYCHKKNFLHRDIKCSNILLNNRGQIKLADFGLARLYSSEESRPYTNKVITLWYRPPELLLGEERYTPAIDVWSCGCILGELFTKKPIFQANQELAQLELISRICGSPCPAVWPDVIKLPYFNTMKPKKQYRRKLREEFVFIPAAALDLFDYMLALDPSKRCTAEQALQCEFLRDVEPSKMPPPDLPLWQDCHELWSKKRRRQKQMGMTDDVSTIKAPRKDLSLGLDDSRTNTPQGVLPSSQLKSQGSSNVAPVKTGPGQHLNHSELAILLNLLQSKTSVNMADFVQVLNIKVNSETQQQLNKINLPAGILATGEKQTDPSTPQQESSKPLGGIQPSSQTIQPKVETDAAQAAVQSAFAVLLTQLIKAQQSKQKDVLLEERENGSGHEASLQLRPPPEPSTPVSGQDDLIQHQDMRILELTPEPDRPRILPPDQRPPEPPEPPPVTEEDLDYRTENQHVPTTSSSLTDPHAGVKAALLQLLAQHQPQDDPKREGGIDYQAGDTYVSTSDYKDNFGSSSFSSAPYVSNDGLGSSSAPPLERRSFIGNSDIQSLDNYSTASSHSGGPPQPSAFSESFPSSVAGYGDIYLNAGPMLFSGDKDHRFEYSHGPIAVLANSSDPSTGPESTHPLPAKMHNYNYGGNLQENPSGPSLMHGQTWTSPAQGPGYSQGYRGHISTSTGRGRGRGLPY
# Sequence of UniProt P48730 (whole entry, looked up): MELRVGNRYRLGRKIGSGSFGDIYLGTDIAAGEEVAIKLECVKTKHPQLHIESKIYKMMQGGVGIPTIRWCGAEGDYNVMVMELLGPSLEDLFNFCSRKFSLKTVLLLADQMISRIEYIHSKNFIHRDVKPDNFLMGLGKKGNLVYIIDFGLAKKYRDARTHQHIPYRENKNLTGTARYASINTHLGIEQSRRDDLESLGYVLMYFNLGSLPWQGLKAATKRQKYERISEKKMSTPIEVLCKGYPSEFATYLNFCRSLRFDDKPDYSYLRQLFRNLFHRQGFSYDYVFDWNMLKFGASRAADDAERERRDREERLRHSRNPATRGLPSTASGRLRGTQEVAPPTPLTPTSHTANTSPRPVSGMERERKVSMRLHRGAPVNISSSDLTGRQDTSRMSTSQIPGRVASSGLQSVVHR
# Sequence of UniProt Q9BWU1 (whole entry, looked up): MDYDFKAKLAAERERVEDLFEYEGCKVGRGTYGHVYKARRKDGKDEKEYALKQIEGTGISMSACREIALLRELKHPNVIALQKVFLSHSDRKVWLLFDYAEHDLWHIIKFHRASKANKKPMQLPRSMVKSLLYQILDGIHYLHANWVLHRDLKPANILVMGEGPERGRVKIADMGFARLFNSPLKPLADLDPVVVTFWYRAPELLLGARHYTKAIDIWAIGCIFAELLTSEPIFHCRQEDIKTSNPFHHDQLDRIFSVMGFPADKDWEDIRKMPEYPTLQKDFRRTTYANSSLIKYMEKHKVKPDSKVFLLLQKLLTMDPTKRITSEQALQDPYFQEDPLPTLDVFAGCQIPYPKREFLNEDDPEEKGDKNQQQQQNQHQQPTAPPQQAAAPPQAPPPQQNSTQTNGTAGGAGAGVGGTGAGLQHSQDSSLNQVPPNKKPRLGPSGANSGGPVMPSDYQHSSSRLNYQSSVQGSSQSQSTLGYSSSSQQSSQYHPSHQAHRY
# Sequence of UniProt Q9NWZ3 (whole entry, looked up): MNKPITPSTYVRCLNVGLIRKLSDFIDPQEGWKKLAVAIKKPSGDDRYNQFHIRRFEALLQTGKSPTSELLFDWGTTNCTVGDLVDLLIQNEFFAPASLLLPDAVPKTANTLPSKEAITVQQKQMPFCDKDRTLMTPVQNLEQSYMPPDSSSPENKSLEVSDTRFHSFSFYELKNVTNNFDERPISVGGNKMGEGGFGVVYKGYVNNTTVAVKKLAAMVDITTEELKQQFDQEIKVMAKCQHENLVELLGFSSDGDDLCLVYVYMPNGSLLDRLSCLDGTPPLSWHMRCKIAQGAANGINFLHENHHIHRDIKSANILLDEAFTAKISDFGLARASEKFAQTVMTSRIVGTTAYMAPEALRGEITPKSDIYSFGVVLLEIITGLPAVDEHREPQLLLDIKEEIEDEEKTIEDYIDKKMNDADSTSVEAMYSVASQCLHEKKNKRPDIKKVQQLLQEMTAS
# Sequence of UniProt Q15375 (whole entry, looked up): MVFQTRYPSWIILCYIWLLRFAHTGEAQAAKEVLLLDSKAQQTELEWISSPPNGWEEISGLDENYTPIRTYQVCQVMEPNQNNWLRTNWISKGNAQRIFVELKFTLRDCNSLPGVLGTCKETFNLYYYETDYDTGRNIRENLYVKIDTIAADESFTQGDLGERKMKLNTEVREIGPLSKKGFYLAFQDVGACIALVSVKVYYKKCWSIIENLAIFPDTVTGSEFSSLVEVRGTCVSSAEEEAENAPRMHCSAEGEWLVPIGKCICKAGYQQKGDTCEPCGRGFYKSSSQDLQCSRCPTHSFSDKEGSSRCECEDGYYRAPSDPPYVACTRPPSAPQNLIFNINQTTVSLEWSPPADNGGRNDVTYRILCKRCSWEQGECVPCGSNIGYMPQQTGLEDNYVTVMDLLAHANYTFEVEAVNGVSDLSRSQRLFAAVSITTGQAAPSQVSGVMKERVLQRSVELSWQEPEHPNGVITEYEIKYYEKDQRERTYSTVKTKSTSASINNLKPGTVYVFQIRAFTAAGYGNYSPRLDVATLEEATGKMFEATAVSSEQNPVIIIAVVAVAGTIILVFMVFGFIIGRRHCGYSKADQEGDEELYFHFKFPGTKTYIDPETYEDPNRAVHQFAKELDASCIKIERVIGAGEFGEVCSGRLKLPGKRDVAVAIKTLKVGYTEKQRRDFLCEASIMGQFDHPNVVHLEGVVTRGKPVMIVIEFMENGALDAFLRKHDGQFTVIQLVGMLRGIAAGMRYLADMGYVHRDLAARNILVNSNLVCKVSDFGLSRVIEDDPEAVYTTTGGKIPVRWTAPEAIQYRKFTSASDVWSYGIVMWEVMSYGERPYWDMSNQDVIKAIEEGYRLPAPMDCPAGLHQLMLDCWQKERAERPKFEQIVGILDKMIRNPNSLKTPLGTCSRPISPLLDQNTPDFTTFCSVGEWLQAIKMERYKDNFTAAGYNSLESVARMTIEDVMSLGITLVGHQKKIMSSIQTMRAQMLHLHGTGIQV
# Sequence of UniProt P35626 (whole entry, looked up): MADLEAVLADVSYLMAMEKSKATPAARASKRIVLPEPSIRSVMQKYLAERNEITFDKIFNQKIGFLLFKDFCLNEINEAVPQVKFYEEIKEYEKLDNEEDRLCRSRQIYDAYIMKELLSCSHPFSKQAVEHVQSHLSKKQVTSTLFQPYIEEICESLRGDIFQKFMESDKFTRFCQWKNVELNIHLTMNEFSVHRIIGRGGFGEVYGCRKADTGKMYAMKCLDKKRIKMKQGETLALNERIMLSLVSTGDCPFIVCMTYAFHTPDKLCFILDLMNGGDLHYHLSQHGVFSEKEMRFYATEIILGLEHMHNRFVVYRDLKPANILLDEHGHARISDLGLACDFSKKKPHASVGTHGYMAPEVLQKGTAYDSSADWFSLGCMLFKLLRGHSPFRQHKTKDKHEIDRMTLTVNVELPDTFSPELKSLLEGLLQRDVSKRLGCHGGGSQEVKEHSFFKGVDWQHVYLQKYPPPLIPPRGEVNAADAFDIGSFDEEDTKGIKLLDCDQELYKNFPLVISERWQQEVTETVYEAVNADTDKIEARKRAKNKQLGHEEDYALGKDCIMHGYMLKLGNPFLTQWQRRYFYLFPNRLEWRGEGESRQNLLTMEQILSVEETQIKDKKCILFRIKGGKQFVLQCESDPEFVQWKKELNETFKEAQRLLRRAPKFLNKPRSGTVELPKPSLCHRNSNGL

# Study 1
# Species: human
# Sample: microsomes or S9
# Concentration: 2 µM
# Time: 0.5 h
Structure (SMILES),remaining compound [%]
Cc1cc(C)cc(OC(C)C(=O)NCCN(C)C)c1 (stereo not shown),92.9
CCC(c1ccccn1)n1cc(-c2nn(C)c3cccc(Cl)c23)nn1 (stereo not shown),80.2
Cn1cnnc1-c1nn(C)c2c1CN(C(=O)c1n[nH]c3c1CCCCCC3)CC2,41.3
Cc1ccc(S(=O)(=O)c2c(O)c3sc4cccc(Cl)c4c3[nH]c2=O)cc1,77.5
CC(=O)Nc1cccc(NS(=O)(=O)c2c(C)nc(O)[nH]c2=O)c1,> 100
CC(C)(C)OC(=O)N1CCC(Nc2nccn3c(Br)cnc23)CC1,95
O=C1OCc2c(-c3ccccc3)sc(-c3ccccc3)c21,2.8
C/C(=C\c1c[nH]c(-c2ccccc2)n1)c1cnccn1,1.38

# Study 2
# SMILES: CN1CCN(C(=O)c2ccc(NC(=O)Nc3ccc(N(C)c4ccnc(Nc5ccc(CS(C)(=O)=O)cc5)n4)cc3)cc2)CC1
# Concentration: 1 µM
target,technique,notes,baseline,remaining binding
"Casein kinase I isoform delta (CSNK1D, Homo sapiens, UniProt P48730)",competitive binding panel,,vehicle,99%
"G protein-coupled receptor kinase 3 (GRK3, Homo sapiens, UniProt P35626)",competitive binding panel,,vehicle,97%
"Serine/threonine-protein kinase MRCK beta (CDC42BPB, Homo sapiens, UniProt Q9Y5S2)",competitive binding,MRCKB,,86%
"Dual specificity protein kinase CLK3 (CLK3, Homo sapiens, UniProt P49761)",competitive binding panel,,vehicle,95%
"Interleukin-1 receptor-associated kinase 4 (IRAK4, Homo sapiens, UniProt Q9NWZ3)",competitive binding panel,,vehicle,52%
"Ephrin type-A receptor 7 (EPHA7, Homo sapiens, UniProt Q15375)",competitive binding panel,,vehicle,92%
"Serine/threonine-protein kinase ICK (CILK1, Homo sapiens, UniProt Q9UPZ9)",competitive binding scan,,,44%
"Glycogen synthase kinase-3 alpha (GSK3A, Homo sapiens, UniProt P49840)",competitive binding panel,,vehicle,100%

# Study 3
# Structure (SMILES): C=CC(=O)N1CCC[C@@H](n2nc(-c3ccc(Oc4ccccc4)cc3)c3c(N)ncnc32)C1
# Mode: inhibitor
# Concentration: 1 µM
target,observed,inhibition [%]
"Serine/threonine-protein kinase DCLK3 (DCLK3, Homo sapiens, UniProt Q9C098)",enzyme activity,0
"Mitogen-activated protein kinase kinase kinase 4 (MAP3K4, Homo sapiens, UniProt Q9Y6R4)",enzyme activity,24
"Tyrosine-protein kinase TXK (TXK, Homo sapiens, UniProt P42681)",enzyme activity,95
"Vascular endothelial growth factor receptor 3 (FLT4, Homo sapiens, UniProt P35916)",enzyme activity,76
"Cyclin-dependent kinase 13 (CDK13, Homo sapiens, UniProt Q14004)",enzyme activity,39
"Fibroblast growth factor receptor 3 (FGFR3, Homo sapiens, UniProt P22607, G697C)",,64
"Cyclin-dependent kinase 19 (CDK19, Homo sapiens, UniProt Q9BWU1)",,33
"cGMP-dependent protein kinase 2 (PRKG2, Homo sapiens, UniProt Q13237)",enzyme activity,30

# Further values, each from its own experiment
Compound,target,observed,technique,concentration,endpoint,result
CS(=O)(=O)N1CCCC(NC(=O)[C@H](CCC2CCCCC2)NC(=O)c2ccc(CNc3ncnc4c3nnn4-c3ccccc3)cc2)C1 (stereo partly shown),"Calcium-dependent protein kinase 1 (CDPK1, Plasmodium falciparum, UniProt P62344)",cell-free assay,competition with immobilised ligand,0.1 µM,remaining binding,100%

# Repeated from above (study 3):
target,observed,inhibition [%]
"Tyrosine-protein kinase TXK (TXK, Homo sapiens, UniProt P42681)",enzyme activity,95
"Cyclin-dependent kinase 19 (CDK19, Homo sapiens, UniProt Q9BWU1)",,33
"Mitogen-activated protein kinase kinase kinase 4 (MAP3K4, Homo sapiens, UniProt Q9Y6R4)",enzyme activity,24
